Measured values pooled from the literature.
Compare with care: the assays were run in different laboratories. Numbers after ± are the reported error.

`CCCC[C@H](NC(=O)COCCOCCNC(=O)CN1CCN(CC(=O)O)CCN(CC(=O)O)CC1)C(=O)N[C@H]1CC(=O)NCCCC[C@@H](C(N)=O)NC(=O)[C@H](Cc2c[nH]c3ccccc23)NC(=O)[C@H](CCCNC(=N)N)NC(=O)[C@@H](Cc2ccccc2)NC(=O)[C@H](Cc2c[nH]cn2)NC1=O` [copper-64 labelled] has a tissue uptake of 1.28 ± 0.39 %ID/g (C57 mice, muscle; intravenous, 0.37 MBq, 0.5 h).
`[64Cu+2].c1ccc(CNCc2ccc(CN3CCCN4CCNCCCN(CC4)CC3)cc2)nc1` has a tissue uptake of 1.38 ± 0.05 %ID/g (CXCR4; NOD/SCID mouse, U87 and U87-stb-CXCR4 xenografts, pancreas; iv, 90 min, ex vivo, together with: AMD3465 25 mg/kg sc before tracer).
For `Cc1cc(-c2ccc(NC(=O)[C@H](CCCCNC(=O)CCOCCOCCC(=O)N[C@H](Cc3ccccc3)C(=O)N[C@H]3CSSC[C@@H](C(=O)N[C@H](C(=O)O)[C@@H](C)O)NC(=O)[C@H]([C@@H](C)O)NC(=O)[C@H](CCCCN)NC(=O)[C@@H](Cc4c[nH]c5ccccc45)NC(=O)[C@H](Cc4ccc(O)cc4)NC3=O)NC(=O)CN3CCN(CC(=O)O)CCN(CC(=O)O)CCN(CC(=O)O)CC3)c(C)c2)ccc1N=Nc1ccc2c(S(=O)(=O)O)cc(S(=O)(=O)O)c(N)c2c1O` [lutetium-177 labelled], “residence time ratio” read 2.5 fold (patients with metastatic neuroendocrine tumours, all metastatic lesions; relative to: compound over 177Lu-EB-TATE).
The tissue uptake of `CC(C)C[C@H](NC(=O)[C@@H](CCCCNC(=O)CCCCCNC(=O)CN1CCN(CC(=O)O)CCN(CC(=O)O)CCN(CC(=O)O)CC1)NC(=O)[C@H](Cc1ccc(O)cc1)NC(=O)[C@H](CO)NC(=O)[C@H](Cc1c[nH]c2ccccc12)NC(=O)[C@H](Cc1cnc[nH]1)NC(=O)[C@@H]1CCC(=O)N1)C(=O)N[C@@H](CCCNC(=N)N)C(=O)N1CCC[C@H]1C(=O)NCC(N)=O` [indium-111 labelled] is reported as 0.51 ± 0.34 %ID/g (female athymic nude mouse, muscle; intravenous, 0.037 MBq, 0.5 h).
`CCCC[C@H](NC(=O)CCCCCCCNC(=O)CN1CCN(CC(=O)O)CCN(CC(=O)O)CC1)C(=O)N[C@H]1CC(=O)NCCCC[C@@H](C(N)=O)NC(=O)[C@H](Cc2c[nH]c3ccccc23)NC(=O)[C@H](CCCNC(=N)N)NC(=O)[C@@H](Cc2ccccc2)NC(=O)[C@H](Cc2c[nH]cn2)NC1=O` [copper-64 labelled] gave a tissue uptake of 0.07 ± 0.05 %ID/g (C57 mice, pancreas; intravenous, 0.37 MBq, 4 h).
For `N=C(N)NCCC[C@@H]1NC(=O)[C@H](CCCCNC(=O)CNC(=O)CNC(=O)CNC(=O)CC[C@H](NC(=O)CNC(=O)CNC(=O)CNC(=O)CN2CCN(CC(=O)O)CCN(CC(=O)O)CCN(CC(=O)O)CC2)C(=O)NCC(=O)NCC(=O)NCC(=O)NCCCC[C@@H]2NC(=O)[C@@H](Cc3ccccc3)NC(=O)[C@H](CC(=O)O)NC(=O)CNC(=O)[C@H](CCCNC(=N)N)NC2=O)NC(=O)[C@@H](Cc2ccccc2)NC(=O)[C@H](CC(=O)O)NC(=O)CNC1=O` [indium-111 labelled], the tissue uptake was 10.7 ± 1.82 %ID/g (female athymic nu/nu mice, U87MG tumour; intravenous, 111 kBq, 1 h).
For `CCCCCCCCCCCCCCCC(=O)NCCCC[C@H](NC(=O)[C@H](CSCC(=O)NCc1cn(CCOc2ccc(C3=C4C(C)=C(I)C(C)=[N+]4[B-](F)(F)n4c(C)c(I)c(C)c43)cc2)nn1)NC(=O)c1ccc(-c2nnc(C)nn2)cc1)C(=O)N[C@@H](CCCNC(=N)N)C(=O)N[C@@H](CCCNC(=N)N)C(=O)N[C@@H](CCCNC(=N)N)C(=O)N[C@@H](CCCNC(=N)N)C(N)=O`, “singlet oxygen quantum yield” read 0.55 (1 µM, together with: DPBF, 525 nm light; relative to: rose bengal, erythrosine B).
For `Cc1nn(-c2ccc(S(=O)(=O)N[C@H](CO)CC(C)C)cc2)c2nn3nnnc3nc12`, the necrotic cells was 42 ± 2.83% (PC-3; AO/EB staining; 2 µM, 24 h).
For `CCCC[C@H](NC(=O)CNC(=O)CNC(=O)CN1CCN(CC(=O)O)CCN(CC(=O)O)CCN(CC(=O)O)CC1)C(=O)N[C@H]1CC(=O)NCCCC[C@@H](C(N)=O)NC(=O)[C@H](Cc2c[nH]c3ccccc23)NC(=O)[C@H](CCCNC(=N)N)NC(=O)[C@@H](Cc2ccccc2)NC(=O)[C@H](Cc2c[nH]cn2)NC1=O` [lutetium-177 labelled], the tissue uptake was 0.23 ± 0.11 %ID/g (C57 mouse, female, heart; intravenous, 0.037 MBq, 4 h).
For `C[n+]1cn([C@@H]2O[C@H](COP(=O)(O)OP(=O)([O-])OP(=O)(O)O)[C@@H](O)[C@H]2O)c2nc(N)nc(O)c21`, the IC50 was 7.57 ± 0.27 µM (cap-dependent translation, inhibitor; rabbit reticulocyte lysate; preincubated 60 min in lysate).
`O=Cc1c(O)ccc2ccccc12` — result for “log2 fold change”: 3.02 (HUVEC; RNA sequencing, refers to: DUSP8; 75 µM, 24 h; relative to: DMSO).
For `N=C(N)NCCC[C@@H]1NC(=O)[C@H](CCCCNC(=O)CNC(=O)CNC(=O)CNC(=O)CC[C@H](NC(=O)CNC(=O)CNC(=O)CNC(=O)CC[C@H](NC(=O)CN2CCN(CC(=O)O)CCN(CC(=O)O)CCN(CC(=O)O)CC2)C(=O)NCC(=O)NCC(=O)NCC(=O)N[C@@H](CCC(=O)NCC(=O)NCC(=O)NCC(=O)NCCCC[C@@H]2NC(=O)[C@@H](Cc3ccccc3)NC(=O)[C@H](CC(=O)O)NC(=O)CNC(=O)[C@H](CCCNC(=N)N)NC2=O)C(=O)NCC(=O)NCC(=O)NCC(=O)NCCCC[C@@H]2NC(=O)[C@@H](Cc3ccccc3)NC(=O)[C@H](CC(=O)O)NC(=O)CNC(=O)[C@H](CCCNC(=N)N)NC2=O)C(=O)NCC(=O)NCC(=O)NCC(=O)NCCCC[C@@H]2NC(=O)[C@@H](Cc3ccccc3)NC(=O)[C@H](CC(=O)O)NC(=O)CNC(=O)[C@H](CCCNC(=N)N)NC2=O)NC(=O)[C@@H](Cc2ccccc2)NC(=O)[C@H](CC(=O)O)NC(=O)CNC1=O` [indium-111 labelled], the tissue uptake was 1.51 ± 0.22 %ID/g (female athymic nu/nu mice, lungs; intravenous, 24 h).
`Cc1cc(-c2ccc(NC(=O)[C@H](CCCCNC(=O)CCN3C(=O)CC(SCCC(=O)N[C@H](Cc4ccccc4)C(=O)N[C@H]4CSSC[C@@H](C(=O)N[C@H](C(=O)O)[C@@H](C)O)NC(=O)[C@H]([C@@H](C)O)NC(=O)[C@H](CCCCN)NC(=O)[C@@H](Cc5c[nH]c6ccccc56)NC(=O)[C@H](Cc5ccc(O)cc5)NC4=O)C3=O)NC(=O)CN3CCN(CC(=O)O)CCN(CC(=O)O)CCN(CC(=O)O)CC3)c(C)c2)ccc1N=Nc1ccc2c(S(=O)(=O)O)cc(S(=O)(=O)O)c(N)c2c1O` (stereo partly shown) [lutetium-177 labelled] gave a residence time of 167 ± 8.75 h (patients with metastatic NETs, whole body).

Repeated from above:
`CCCC[C@H](NC(=O)CCCCCCCNC(=O)CN1CCN(CC(=O)O)CCN(CC(=O)O)CC1)C(=O)N[C@H]1CC(=O)NCCCC[C@@H](C(N)=O)NC(=O)[C@H](Cc2c[nH]c3ccccc23)NC(=O)[C@H](CCCNC(=N)N)NC(=O)[C@@H](Cc2ccccc2)NC(=O)[C@H](Cc2c[nH]cn2)NC1=O` [copper-64 labelled] gave a tissue uptake of 0.07 ± 0.05 %ID/g (C57 mice, pancreas; intravenous, 0.37 MBq, 4 h).
